# Experimental data from different studies.
# Each line is one published result; not all experiments were run side by side. Several values in a cell are separate wells, animals, samples, runs or records. Numbers after ± are the reported error.
SMILES,organism,assay,test system,conditions,scale,endpoint,result
COc1ccc(OCCCO)cc1-c1cn2cc(-c3nnc(NCCCCc4ccccc4)o3)ccc2n1,Plasmodium falciparum,LDH readout,3D7 Hyp1-Nluc,"2 µM, 72 h",relative to: DMSO,parasite growth,53.1%
N=C(N)c1ccc(OCc2ccc(Br)cc2COc2ccc(C(=N)N)cc2)cc1,Escherichia coli,checkerboard,552100 clinical isolate,"unit not given, added: rifampicin",lower = stronger synergy,FICI,≤ 0.031
COC(=O)[C@H]1[C@H]2C[C@@H]3c4[nH]c5cc(OC)ccc5c4CCN3C[C@H]2C[C@@H](OC(=O)c2cc(OC)c(OC)c(OC)c2)[C@@H]1OC,Drosophila melanogaster,fluorescence,,"liquid food, 40 µg/mL, first instar larvae",relative to: solvent,fluorescein ingestion,-18.1%
Nc1nc(-c2ccccc2)nc2[nH]nc(Nc3ccc(C(F)(F)F)cc3)c12,coxsackievirus B3,,"31-1-93, NMRI mice, CVB3 chronic myocarditis","oral, 100 mg/kg twice daily, day 10, dosed days 1 to 7, score scale 0 to 7",direction not given,clinical score,0.22
C[C@@H]1[C@H](O)[C@@H](C)/C=C/C=C/C=C/C=C/C=C/C=C/C=C/[C@H](O[C@@H]2O[C@H](C)[C@@H](O)[C@H](N)[C@@H]2O)C[C@@H]2O[C@](O)(C[C@@H](O)C[C@@H](O)[C@H](O)CC[C@@H](O)C[C@@H](O)CC(=O)O[C@H]1C)C[C@H](O)[C@H]2C(=O)O,Leishmania major,eosin vital stain,promastigote,"500 µg/mL, 12 h",,antileishmanial activity,57% and 56.3% and 59.2%
CO[C@H]1[C@H](O[C@H]([C@H]2O[C@@H](n3ccc(=O)[nH]c3=O)[C@H](O)[C@@H]2O)[C@H](NCCCNC(=O)[C@@H](NC(=O)[C@@H](NC(=O)N[C@H](C(=O)O)C(C)C)[C@@H]2CCN=C(N)N2)[C@@H](O)C(C)C)C(=O)O)O[C@H](CN)[C@H]1O,Mycolicibacterium smegmatis,microplate alamar blue,ATCC 607,nutrient-deficient condition,,MIC90,1.4 ± 0.082 µg/mL
CCNC(=O)N1CCC[C@H](C(=O)NCc2nc(-c3ccccc3)cs2)C1,Plasmodium falciparum,SYBR Green growth,"asexual blood-stage parasites, 3D7",72 h,,EC50,> 5 µM
COC(=O)[C@H](Cc1ccc(O)cc1)NCc1cc2ccccc2nc1SC,Pseudomonas aeruginosa,,,"4 µg/mL, added: pentamidine 50 µM",relative to: control,growth,99.3%
COc1c(-c2coc3cc4c(cc3c2=O)CC(O)C(C)(C)O4)ccc2c1C=CC(C)(C)O2 (stereo not shown),Drosophila melanogaster,fluorescence,,"liquid food, 40 µg/mL, first instar larvae",relative to: solvent,fluorescein ingestion,-26.4%
O=C(Nc1ccc(CNc2ncnc3ccccc23)cc1)c1ccc(Cl)c(F)c1,Plasmodium falciparum,nanoluciferase readout,3D7 Hyp1-Nluc,"2 µM, 72 h",relative to: DMSO,parasite growth,21.4%
Oc1cc2c(cc1O)C1c3ccc(O)c(O)c3OCC1(O)C2 (stereo not shown),Drosophila melanogaster,fluorescence,,"liquid food, 40 µg/mL, first instar larvae",relative to: solvent,fluorescein ingestion,-28.2%
Cn1cc(-c2cnc3[nH]cc(-c4cn(Cc5cccc(F)c5F)nn4)c3c2)cn1,Plasmodium falciparum,nanoluciferase readout,3D7 Hyp1-Nluc,"20 µM, 72 h",relative to: DMSO,parasite growth,0.403%
COCC(=O)N1CCCN(C(=O)NCc2nc(-c3ccccc3)cs2)C1,Plasmodium falciparum,SYBR Green growth,"asexual blood-stage parasites, 3D7",72 h,,EC50,> 5 µM
CC[C@H]1OC(=O)[C@H](C)[C@@H](O[C@H]2C[C@@](C)(OC)[C@@H](O)[C@H](C)O2)[C@H](C)[C@@H](O[C@@H]2O[C@H](C)C[C@H](N(C)C)[C@H]2O)[C@](C)(O)C[C@@H](C)C(=O)[C@H](C)[C@@H](O)[C@]1(C)O,Drosophila melanogaster,fluorescence,,"liquid food, 40 µg/mL, first instar larvae",relative to: solvent,fluorescein ingestion,10.7%
O=C(NCCN1CCCC1)c1cc(-c2ccc(CN3CCOCC3)cc2)nc2ccc(F)cc12,Plasmodium berghei,"parasite growth, luciferase bioluminescence",HepG2 spheroids infected,24 h,,EC80,0.00378 µM
CC(=O)O[C@@H]1C[C@H]2C(C)(C)C(=O)C=C[C@]2(C)[C@H]2CC[C@@]3(C)[C@H](c4ccoc4)OC(=O)[C@H]4O[C@]43[C@@]21C,Drosophila melanogaster,fluorescence,,"liquid food, 40 µg/mL, first instar larvae",relative to: solvent,fluorescein ingestion,-24.2%
CC(=O)NC[C@H]1CN(c2ccc(N3CCOCC3)c(F)c2)C(=O)O1,Staphylococcus aureus,,"MRSA, 10 isolates",pH 8.5,,MIC50,2 µg/mL
Cc1cc(OC(C)C)ccc1C(=O)C(C)(C)NC(=O)c1sccc1C,Sclerotinia minor,mycelial growth,PSA medium,20 °C,,EC50,0.03 µg/mL
CCCCCCCNC1=C(n2cncn2)C(=O)c2ccccc2C1=O,Serratia marcescens,,MTCC 4301,10 µg/mL,,zone of inhibition,8 mm
CNC(=O)c1cc(Oc2ccc(NC(=O)Nc3ccc(F)c(C(F)(F)F)c3)c(F)c2)ccn1,Drosophila melanogaster,rescue from lethality,ptc>dRet M955T,"concentration not given, 25 °C, compound in food",,toxicity,not toxic
CC(C)C[C@@H]1NC(=O)[C@@H](Cc2ccccc2)NC(=O)[C@H](CCN)NC(=O)[C@@H](NC(=O)[C@H](CCN)NC(=O)[C@@H](N)[C@@H](C)O)CCNC(=O)[C@H]([C@@H](C)O)NC(=O)[C@H](CCN)NC(=O)[C@H](CCN)NC1=O,Escherichia coli,"vancomycin MIC with synergist, checkerboard",BW25113,"concentration not given, lowest-FICI combination, added: vancomycin",,MIC,50 µg/mL
CC(=O)Oc1ccccc1C(=O)Nc1ncc([N+](=O)[O-])s1,Cryptosporidium parvum,,HCT-8,"EC90, 72 h",relative to: DMSO control,parasite number,160% and 138% and 170% and 106%
COCC(=O)N1CCC[C@H](C(=O)NCc2nc(-c3ccccc3OC)cs2)C1,Plasmodium falciparum,SYBR Green growth,"asexual blood-stage parasites, 3D7",72 h,,EC50,> 5 µM
CC(=Nc1ccc(N=Cc2cnccn2)cc1)N(C)C,Necator americanus,,"hamster (Mesocricetus auratus), infected","oral, 50 mg/kg single dose, 1 h",,anthelmintic rate,18.9 ± 12.2%
CC1(C)c2nc(-c3ccc(F)cc3)c(Nc3ccc(F)cc3)n2CCN1C(=O)CN,Plasmodium berghei,checkerboard model fit,HepG2 spheroids,,,maximum killing rate,0.117 h⁻¹
Cc1cc(C(C)(C)C)cc(C)c1CC1=NCCN1,Drosophila melanogaster,fluorescence,,"liquid food, 40 µg/mL, first instar larvae",relative to: solvent,fluorescein ingestion,13%
CNS(=O)(=O)c1ccccc1Nc1nc(Nc2ccc(N3CCOCC3)cc2OC)ncc1Br,Plasmodium falciparum,LDH readout,3D7 Hyp1-Nluc,"2 µM, 72 h",relative to: DMSO,parasite growth,14.2%
CC(C)n1ncc2c(C(=O)NCC3(C)CNC3)cc(C3CC3)nc21,coxsackievirus A16,,RD,1.5 µM,,cell protection,86.3% and 87.8%
COc1cc(C=O)ccc1OC1=C(Cl)C(=O)c2ccccc2C1=O,Serratia marcescens,,MTCC 4301,10 µg/mL,,zone of inhibition,23 mm
CC1(C)S[C@@H]2[C@H](NC(=O)[C@H](N)c3ccccc3)C(=O)N2[C@H]1C(=O)O,Pseudomonas aeruginosa,,clinical isolate RKI-No_578/15,,,MIC,> 16 µg/mL
C#CCOC(=O)ON=C1C=CC(=C(C#N)c2ccccc2)C=C1,Clavispora lusitaniae,broth dilution,ATCC 34449,"48 h, 37 °C",,MFC,64 µg/mL
CC/N=C(\c1ccc(OC)c(OC)c1)N1CCCc2cc(C3=NNC(=O)SC3C)ccc21 (stereo not shown),Plasmodium falciparum,"schizont egress, Nluc release",Hyp1-Nluc,"10 x growth EC50, 4 h",,inhibition,79.7%
COC(=O)[C@@H](NCc1cc2ccccc2nc1OCc1ccccc1)C(C)C,Pseudomonas aeruginosa,,,"32 µg/mL, added: pentamidine 50 µM",relative to: control,growth,94.1%
CC[n+]1c(/C=C/C=C2/N(C)c3ccccc3C2(C)C)sc2ccccc21.[I-],Drosophila melanogaster,liquid food feeding,,"40 µg/mL, first instar larvae",relative to: solvent,fluorescein ingestion,-42.3%
CO[C@H]1/C=C/O[C@@]2(C)Oc3c(C)c(O)c4c(c3C2=O)C2=NC3(CCN(CC(C)C)CC3)NC2=C(NC(=O)/C(C)=C\C=C\[C@H](C)[C@H](O)[C@@H](C)[C@@H](O)[C@@H](C)[C@H](OC(C)=O)[C@@H]1C)C4=O,Mycobacteroides abscessus,bacterial growth,subsp. abscessus K21 clinical isolate,,,IC90,7.8 µM
O=C(NCc1nc(-c2ccccc2)cs1)[C@H]1CCCN(C(=O)COCC(F)F)C1,Plasmodium falciparum,SYBR Green growth,"asexual blood-stage parasites, 3D7",72 h,,EC50,0.032 ± 0.0044 µM
CN[C@H](CC(C)C)C(=O)N[C@H]1C(=O)N[C@@H](CC(N)=O)C(=O)N[C@H]2C(=O)N[C@H]3C(=O)N[C@H](C(=O)N[C@H](C(=O)O)c4cc(O)cc(O)c4-c4cc3ccc4O)[C@H](O)c3ccc(c(Cl)c3)Oc3cc2cc(c3O[C@@H]2O[C@H](CO)[C@@H](O)[C@H](O)[C@H]2O[C@H]2C[C@](C)(N)[C@H](O)[C@H](C)O2)Oc2ccc(cc2Cl)[C@H]1O,Streptococcus pneumoniae,,PRSP,10 isolates,,MIC50,0.25 µg/mL
COc1ccc(C[C@H](NC(=O)[C@H](C)NC(=O)CN2CCOCC2)C(=O)N[C@@H](Cc2ccccc2)C(=O)C2(C)CO2)cc1 (stereo in doubt),Plasmodium berghei,,"ANKA, BALB/c mouse, infected","dose not given, 4-day test, 4 days treatment, day 6 post infection",,parasitaemia suppression,> 97% and > 95%
CNCC(=O)N1CCC[C@H](C(=O)NCc2nc(-c3ccccc3)cs2)C1,Plasmodium falciparum,SYBR Green growth,"asexual blood-stage parasites, 3D7",72 h,,EC50,> 5 µM
COc1ccc(Nc2ccnc3ccc(-c4ccc(S(=O)(=O)N5CCOCC5)cc4)cc23)cc1C,Plasmodium falciparum,"parasite growth, SYBR Green",W2,,,EC50,1.2 µM
COCC(=O)N1CCC[C@H](C(=O)NCCc2nc(-c3ccccc3)cs2)C1,Plasmodium falciparum,SYBR Green growth,"asexual blood-stage parasites, 3D7",72 h,,EC50,3.5 ± 0.84 µM
O=c1cc(-c2ccccc2)oc2cc(O)c(O)c(O)c12,Drosophila melanogaster,fluorescence,,"liquid food, 40 µg/mL, first instar larvae",relative to: solvent,fluorescein ingestion,-56.9%
O=C(NCc1nc(-c2ccc(C(F)(F)F)cc2)cs1)[C@H]1CCCN(C(=O)COC2CCNCC2)C1,Plasmodium falciparum,"parasite growth, SYBR Green","3D7, asexual blood stage",72 h,,EC50,0.039 ± 0.0095 µM
N#CC(=C1C=CC(=NOC(=O)OCc2ccccc2)C=C1)c1ccccc1,Clavispora lusitaniae,broth dilution,ATCC 34449,"48 h, 37 °C",,MFC,128 µg/mL
COCC(=O)NCCC(=O)NCc1nc(-c2ccccc2)cs1,Plasmodium falciparum,SYBR Green growth,"asexual blood-stage parasites, 3D7",72 h,,EC50,> 5 µM
CC(C)=CCC/C(C)=C/CNCCNC1C2CC3CC(C2)CC1C3 (stereo not shown),Mycolicibacterium smegmatis,cell growth,,,,IC50,no effect
